{"data": "Measurements gathered from unrelated publications", "note": "Each numbered part is a random draw from the data of one study; scales do not carry over between parts."}
{"data": "Study 1", "target": "Histone acetyltransferase KAT6A, both winged helices, GST fusion (KAT6A, Homo sapiens, UniProt Q92794, residues 1-181)", "technique": "protein binding microarray", "molecule type": "double-stranded DNA, one strand shown", "matrix": "in vitro", "concentration": "not given", "setting": "8-mer, flanks averaged, mean of 2 arrays, mostly near background", "reference": "not given", "direction": "higher = stronger binding", "Target sequence (chain)": "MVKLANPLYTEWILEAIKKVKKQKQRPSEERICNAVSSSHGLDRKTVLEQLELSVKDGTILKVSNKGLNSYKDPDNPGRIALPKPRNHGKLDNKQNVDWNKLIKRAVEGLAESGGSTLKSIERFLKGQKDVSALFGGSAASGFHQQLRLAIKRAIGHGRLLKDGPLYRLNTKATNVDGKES"}
{"Strand": "ATATCAGA", "E-score": -0.0285}
{"Strand": "GTCCAAGA", "E-score": -0.0292}
{"Strand": "AGCCGGGC", "E-score": 0.104}
{"data": "Study 2", "target": "Prothrombin, mature alpha-thrombin (F2, Homo sapiens, UniProt P00734)", "technique": "aptamer microarray, sandwich", "molecule type": "DNA with 2'F-ANA", "matrix": "in vitro", "concentration": "200 nM", "setting": "whole 15-mer aptamer, many near background", "added": "Cy3 exosite-II aptamer, 400 nM", "direction": "higher = stronger binding"}
{"Strand": "GGTTGGTGTGGTTGG (2'F-ANA at 3 4 7 10 12)", "mean fluorescence intensity [a.u.]": 491}
{"Strand": "GGTTGGTGTGGTTGG (2'F-ANA at 2 4 6 7 10 12)", "mean fluorescence intensity [a.u.]": 142}
{"Strand": "GGTTGGTGTGGTTGG (2'F-ANA at 2 5 9 10 13 14 15)", "mean fluorescence intensity [a.u.]": 49.2}
{"Strand": "GGTTGGTGTGGTTGG (2'F-ANA at 1 2 5 7 8 11 12 13 15)", "mean fluorescence intensity [a.u.]": 82.9}
{"data": "Study 3", "target": "Centromere-binding protein 1, full length, His-tagged (CBF1, Saccharomyces cerevisiae, UniProt P17106, residues 1-351)", "technique": "competition protein-binding microarray", "molecule type": "double-stranded DNA, one strand shown", "matrix": "in vitro", "concentration": "2 µM", "setting": "whole 60-bp probe, lowest competitor level", "added": "Pho4 competitor, 0.05 µM", "direction": "higher = stronger binding", "all sequences stand within": "… GTCTTGATTCGCTTGACGCTGCTG", "sequence of UniProt P17106 (whole entry, looked up)": "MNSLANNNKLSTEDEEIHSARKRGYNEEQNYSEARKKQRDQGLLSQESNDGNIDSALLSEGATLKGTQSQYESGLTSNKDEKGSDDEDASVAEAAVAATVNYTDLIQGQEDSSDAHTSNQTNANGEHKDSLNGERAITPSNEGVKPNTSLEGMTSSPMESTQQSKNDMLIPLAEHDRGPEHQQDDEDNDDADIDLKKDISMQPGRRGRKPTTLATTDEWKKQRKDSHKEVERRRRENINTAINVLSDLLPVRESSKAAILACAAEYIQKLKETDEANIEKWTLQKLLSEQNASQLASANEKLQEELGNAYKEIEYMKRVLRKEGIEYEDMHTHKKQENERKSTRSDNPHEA"}
{"Strand": "ACTTCATTCGGTGCTTCCGTGACGGGTTCAACGGCT", "fluorescence intensity": "77.8 a.u."}
{"Strand": "TTTTTTTGGCTCCATCACGCTCGTCAGTTGAGCTCG", "fluorescence intensity": "74.8 a.u."}
{"Strand": "TATATTAGGTCGAGTCACGGGTGGTGTCCCTCAAGC", "fluorescence intensity": "266 a.u."}
{"Strand": "CACTATGAGGATCAACACGTGAAGAGAGCCTTGAAG", "fluorescence intensity": "828 a.u."}
{"Strand": "GGAATTCCAGCACCACTCGTGCAAAACGTACCAAAT", "fluorescence intensity": "90.4 a.u."}
{"data": "Mixed results"}
{"Substance": "PhoQ, residues 284 288 289 292 302 303 SVHLDV", "target": "PhoP, residues 12 14 15 18 19 LYHSL (Escherichia coli, UniProt P23836)", "test": "Sort-seq, measured: YFP reporter", "test system": "E. coli", "conditions": "PhoQ-PhoP variant library, added: 10 µM Mg2+", "scale": "reference: high Mg2+ state, higher = stronger signaling", "quantity": "fold induction", "value": 2.48}
{"note": "A few entries again (study 2):"}
{"Strand": "GGTTGGTGTGGTTGG (2'F-ANA at 1 2 5 7 8 11 12 13 15)", "mean fluorescence intensity [a.u.]": 82.9}
